Measurements from different studies.
A part holds a random share of what one study measured.

Sample 1 — technique: protein binding microarray; molecule type: double-stranded DNA, one strand shown; medium: in vitro; concentration: not given; reference: not given; direction: higher = stronger binding
Target: Histone acetyltransferase KAT6A, winged helix 1, GST fusion (KAT6A, Homo sapiens, UniProt Q92794, residues 1-85)
Setting: 8-mer, flanks averaged, mean of 2 arrays, mostly near background
Construct (chain): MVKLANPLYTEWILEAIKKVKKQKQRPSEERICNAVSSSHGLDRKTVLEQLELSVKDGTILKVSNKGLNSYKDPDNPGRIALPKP
| Oligonucleotide | E-score |
| --- | --- |
| ATTTCCAG | -0.0894 |
| CACGCCTC | 0.0639 |
| CCCCCCAA | -0.167 |
| ATGAGGCA | -0.223 |
| TCATTTAA | -0.111 |
| GCGGGTTA | 0.338 |

Sample 2 — technique: protein-binding microarray; molecule type: double-stranded DNA, one strand shown; medium: in vitro; concentration: not given; direction: higher = stronger binding
Target: Protein C-ets-1 (ETS1, Homo sapiens, UniProt P14921, residues 1-441, full length assumed)
Setting: k-mer, scored over probes, only values ≥0.25
Residues (chain): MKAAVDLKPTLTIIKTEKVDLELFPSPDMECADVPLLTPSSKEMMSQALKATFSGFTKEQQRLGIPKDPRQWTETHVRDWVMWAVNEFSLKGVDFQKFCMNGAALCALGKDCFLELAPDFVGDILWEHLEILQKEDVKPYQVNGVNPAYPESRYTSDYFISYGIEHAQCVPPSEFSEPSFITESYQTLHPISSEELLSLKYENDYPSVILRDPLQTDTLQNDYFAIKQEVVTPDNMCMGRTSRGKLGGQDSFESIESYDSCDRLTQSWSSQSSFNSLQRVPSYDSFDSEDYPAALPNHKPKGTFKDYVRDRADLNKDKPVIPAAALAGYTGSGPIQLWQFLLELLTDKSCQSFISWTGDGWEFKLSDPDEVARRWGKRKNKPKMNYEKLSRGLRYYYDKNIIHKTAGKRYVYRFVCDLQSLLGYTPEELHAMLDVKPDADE
| Oligonucleotide | E-score |
| --- | --- |
| ATCCTGAC | 0.253 |
| CGGGTTCC | 0.319 |
| CCGATACA | 0.278 |
| CAAACGGA | 0.28 |
| CATCGGAA | 0.319 |
| GGGAAGGA | 0.351 |
| GCTTATCC | 0.258 |
| AGAGGATA | 0.268 |

Sample 3 — technique: universal PBM; molecule type: double-stranded DNA, one strand shown; medium: in vitro; concentration: 600 nM; direction: higher = stronger binding
Target: Sal-like protein 4, full length isoform A (SALL4, Homo sapiens, UniProt Q9UJQ4, residues 1-1053)
Sequence of UniProt Q9UJQ4 (whole entry, looked up): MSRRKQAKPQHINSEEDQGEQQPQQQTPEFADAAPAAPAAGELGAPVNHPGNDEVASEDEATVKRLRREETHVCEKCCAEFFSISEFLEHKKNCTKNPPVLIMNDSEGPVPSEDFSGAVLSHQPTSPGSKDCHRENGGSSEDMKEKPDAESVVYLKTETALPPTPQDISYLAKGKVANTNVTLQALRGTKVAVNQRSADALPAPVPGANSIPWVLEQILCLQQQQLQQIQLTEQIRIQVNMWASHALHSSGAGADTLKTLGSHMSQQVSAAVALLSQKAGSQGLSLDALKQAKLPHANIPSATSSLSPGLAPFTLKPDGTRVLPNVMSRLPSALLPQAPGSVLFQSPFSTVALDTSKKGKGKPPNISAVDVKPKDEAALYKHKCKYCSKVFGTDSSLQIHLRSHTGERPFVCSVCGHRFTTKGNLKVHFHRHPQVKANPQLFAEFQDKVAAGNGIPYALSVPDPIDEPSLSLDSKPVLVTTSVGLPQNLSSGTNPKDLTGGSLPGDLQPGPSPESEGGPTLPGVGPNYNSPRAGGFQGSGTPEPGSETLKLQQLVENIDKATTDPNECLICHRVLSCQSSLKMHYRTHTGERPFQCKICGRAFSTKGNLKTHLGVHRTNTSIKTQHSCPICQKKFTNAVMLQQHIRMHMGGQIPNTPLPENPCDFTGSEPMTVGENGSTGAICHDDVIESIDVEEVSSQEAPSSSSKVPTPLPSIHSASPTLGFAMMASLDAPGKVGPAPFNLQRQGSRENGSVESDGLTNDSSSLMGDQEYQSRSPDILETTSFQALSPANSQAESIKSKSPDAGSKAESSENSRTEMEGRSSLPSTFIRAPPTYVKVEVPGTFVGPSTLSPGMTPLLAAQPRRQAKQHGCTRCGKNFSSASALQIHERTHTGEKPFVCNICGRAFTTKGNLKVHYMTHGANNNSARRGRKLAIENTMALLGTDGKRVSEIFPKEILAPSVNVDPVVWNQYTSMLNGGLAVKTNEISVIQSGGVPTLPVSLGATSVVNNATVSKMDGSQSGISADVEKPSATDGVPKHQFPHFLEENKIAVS
Setting: 8-mer, flanks averaged, mean of replicates
| Oligonucleotide | E-score |
| --- | --- |
| TATTGTAA | 0.34 |
| CCATCGAG | -0.0828 |
| AGTCTGCG | -0.254 |
| ATGAGACA | 0.206 |
| CTCCGGAC | -0.289 |
| AGTGGCAA | 0.162 |
| ATCCTTCC | 0.00615 |
| CGTTTAGA | -0.0255 |
| AATAATTG | 0.404 |
| TACTACAA | 0.287 |
| CATGGTGC | -0.151 |

Other studies, line by line
| Substance | target | assay | test system | conditions | how to read | endpoint | result |
| --- | --- | --- | --- | --- | --- | --- | --- |
| PhoQ, residues 284 288 289 292 302 303 SSTMSV | PhoP, residues 12 14 15 18 19 NMSSL (Escherichia coli, UniProt P23836) | Sort-seq, refers to: YFP reporter | E. coli | PhoQ-PhoP variant library, with: 10 µM Mg2+ | reference: high Mg2+ state, higher = stronger signaling | fold induction | 14.9 |

Excerpt of the above (sample 2):
| Oligonucleotide | E-score |
| --- | --- |
| AGAGGATA | 0.268 |
| GGGAAGGA | 0.351 |
| CCGATACA | 0.278 |
| CGGGTTCC | 0.319 |
